Experimental data of several laboratories.
Every numbered part comes from another study and shows a few of its results, in no order.

Block 1 — organism: SARS-CoV-2; read-out: cytopathic effect; cells: Vero E6; concentration: 10 µM; measurement: inhibition
Nc1ccc2cc3ccc(N)cc3nc2c1: 19.1%
CCOC(=O)Cc1ccc(-c2ccccc2)cc1: -5.7%
Cc1ccc(S(=O)(=O)N[C@@H](Cc2ccccc2)C(=O)CCl)cc1: -43.8%
CCCCCCCCCCCCCCCCCC[S+](CCC)c1ccccc1C(=O)OCC (stereo not shown): -33.5%
CC(C)c1cc(CNc2nc(Nc3cc(C4CC4)[nH]n3)cc(N3CCN(C)CC3)n2)on1: -18.8%

Block 2 — technique: universal PBM; form: double-stranded DNA, one strand shown; matrix: in vitro; concentration: 600 nM; reading: higher = stronger binding; measurement: E-score
Target: Sal-like protein 4, full length isoform A (SALL4, Homo sapiens, UniProt Q9UJQ4, residues 1-1053)
Sequence of UniProt Q9UJQ4 (whole entry, looked up): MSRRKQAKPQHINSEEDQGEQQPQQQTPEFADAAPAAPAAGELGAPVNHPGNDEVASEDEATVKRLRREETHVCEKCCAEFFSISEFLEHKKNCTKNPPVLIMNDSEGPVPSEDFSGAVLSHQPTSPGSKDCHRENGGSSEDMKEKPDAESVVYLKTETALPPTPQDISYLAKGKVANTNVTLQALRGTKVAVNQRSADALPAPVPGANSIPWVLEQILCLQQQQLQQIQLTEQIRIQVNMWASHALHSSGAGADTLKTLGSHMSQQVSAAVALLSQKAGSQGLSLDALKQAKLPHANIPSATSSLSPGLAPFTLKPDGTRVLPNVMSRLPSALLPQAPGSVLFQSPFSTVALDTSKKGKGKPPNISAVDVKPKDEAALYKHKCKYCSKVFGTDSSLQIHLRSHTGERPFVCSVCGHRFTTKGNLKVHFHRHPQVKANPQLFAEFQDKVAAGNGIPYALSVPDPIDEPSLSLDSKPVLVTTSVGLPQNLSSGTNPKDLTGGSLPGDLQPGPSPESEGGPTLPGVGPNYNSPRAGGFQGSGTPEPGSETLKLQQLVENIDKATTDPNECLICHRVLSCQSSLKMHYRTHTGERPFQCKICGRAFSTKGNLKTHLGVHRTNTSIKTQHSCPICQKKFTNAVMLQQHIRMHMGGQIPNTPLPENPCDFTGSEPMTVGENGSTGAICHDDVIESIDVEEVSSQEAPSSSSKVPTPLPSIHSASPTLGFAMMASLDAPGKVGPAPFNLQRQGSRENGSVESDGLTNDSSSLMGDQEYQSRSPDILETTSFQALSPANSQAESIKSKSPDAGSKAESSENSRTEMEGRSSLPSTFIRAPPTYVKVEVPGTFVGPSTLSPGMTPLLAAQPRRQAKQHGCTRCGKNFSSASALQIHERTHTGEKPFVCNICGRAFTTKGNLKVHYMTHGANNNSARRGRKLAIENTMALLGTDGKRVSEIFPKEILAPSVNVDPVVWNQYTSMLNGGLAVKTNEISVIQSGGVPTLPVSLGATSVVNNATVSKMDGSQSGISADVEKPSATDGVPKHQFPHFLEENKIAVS
Setting: 8-mer, flanks averaged, mean of replicates
AAATTGCA: 0.193
ACATACGA: 0.139
CCCGACCA: -0.177
TAGCGGCA: -0.226
AGCGTTAT: 0.0968
CGTTCGGA: -0.205
CGCAACCA: -0.201
TGCACGCA: -0.0504

Block 3 — action: inhibitor; concentration: 20 µM; measurement: inhibition
Target: Replicase polyprotein 1ab, nsp13 helicase (rep, Severe acute respiratory syndrome coronavirus 2, UniProt P0DTD1)
CCc1cccc(CC)c1NC(=O)c1nn(C)c2c1CCc1cnc(Nc3ccc(C(=O)NC4CCN(C)CC4)cc3OC(F)(F)F)nc1-2: 0.31%
N[C@@H]1[C@H]2CN(c3nc4c(cc3F)c(=O)c(C(=O)O)cn4-c3ccc(F)cc3F)C[C@@H]12: 7.13%
CCC1(c2ccc(N)cc2)CCC(=O)NC1=O (stereo not shown): -2.51%
O=C(O)c1ccc(S(=O)(=O)N(Cl)Cl)cc1: -3.9%
O=C(c1cncc(Br)c1)N1CCC(N2CCCC2)CC1: 3.93%
Cc1cc(NC(=O)Nc2ccc(F)c(F)c2)n(-c2ccccc2)n1: 1.66%
Cc1cccn2c(=O)c(/C=C(\C#N)c3nc4ccccc4s3)c(Oc3ccc(F)cc3)nc12: 18.9%
CC(C)(C)c1cc(C=C(C#N)C#N)cc(C(C)(C)C)c1O: 2.53%
COc1ccc(-c2cc(=O)c3c(O)c(OC)c(O)cc3o2)cc1OC: -0.84%
CCCCC(=O)NCCc1c(Cc2ccccc2)[nH]c2ccccc12: 0.43%
O=C(O)C1=CO[C@@H](O[C@@H]2O[C@H](CO)[C@@H](O)[C@H](O)[C@H]2O)[C@@H]2C(CO)=CC[C@H]12: -2.89%
Cn1c(NC[C@@H](N)Cc2ccccc2)nc(-c2ccncc2)c(-c2ccc3ccccc3c2)c1=O: 19.7%
CN(C)C(=O)CCSC(SCCC(=O)O)c1cccc(/C=C/c2ccc3ccc(Cl)cc3n2)c1 (stereo not shown): 12.6%
CO[C@H]1C[C@H](O[C@H]2[C@H](C)O[C@@H](O[C@@H]3/C(C)=C/C[C@@H]4C[C@@H](C[C@]5(C=C[C@H](C)[C@@H](C6CCCCC6)O5)O4)OC(=O)[C@@H]4C=C(C)[C@@H](O)[C@H]5OC/C(=C\C=C\[C@@H]3C)[C@]54O)C[C@@H]2OC)O[C@@H](C)[C@@H]1O: 0.49%
COc1cc(Br)c(S(=O)(=O)Nc2ccc(Cl)c(O[C@@H]3CCN(C)C3)c2)cc1OC: 3.67%
CCN1CCN(C(=O)N[C@@H](C(=O)N[C@@H]2C(=O)N3C(C(=O)O)=C(CSc4nnnn4C)CS[C@H]23)c2ccc(O)cc2)C(=O)C1=O: 12.1%
O=C(Nc1ccc(F)cc1)N1CCc2ccccc2C1c1ccc(C(F)(F)F)cc1 (stereo not shown): -1.41%
OC[C@H]1O[C@@H](c2ccc(F)c(Cc3cc4ccccc4s3)c2)[C@H](O)[C@@H](O)[C@@H]1O: 5.35%
CCN(CC)CCOC(=O)C(c1ccccc1)c1ccccc1: 5.43%
CC1=C(C(=O)OC2CCCCC2)C(c2ccc([N+](=O)[O-])cc2)C2=C(CC(C)(C)CC2=O)N1 (stereo not shown): 3.99%
Nc1ccc(S(=O)(=O)Nc2ccc(Cl)nn2)cc1: 2.05%
CCOC(=S)SSC(=S)OCC: 53.3%
COC(=O)[C@]12CCC(C)(C)C[C@H]1[C@H]1C(=O)C=C3[C@@]4(C)C=C(C#N)C(=O)C(C)(C)[C@@H]4CC[C@@]3(C)[C@]1(C)CC2: 11.2%
COC(=O)c1cc2c(C(F)(F)F)cc(-c3ccccc3)cc2n1O: 3.33%
CO/N=C(\C(=O)N[C@@H]1C(=O)N2C(C(=O)O)=C(COC(C)=O)CS[C@H]12)c1csc(N)n1: 4.99%

Block 4 — technique: protein-binding microarray; form: double-stranded DNA, one strand shown; matrix: in vitro; concentration: not given; reading: higher = stronger binding; measurement: E-score
Target: Hepatocyte nuclear factor 3-beta, forkhead domain (FOXA2, Homo sapiens, UniProt Q9Y261, residues 142-269)
Setting: k-mer, scored over probes, only values ≥0.25
Construct (chain): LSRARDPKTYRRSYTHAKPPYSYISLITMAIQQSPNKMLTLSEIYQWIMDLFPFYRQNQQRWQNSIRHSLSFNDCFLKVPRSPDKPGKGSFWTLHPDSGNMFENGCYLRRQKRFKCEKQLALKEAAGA
AGCAAATA: 0.281
AATGTAAA: 0.342
AATGAATG: 0.258
CATAATAG: 0.258
AACAACAA: 0.353
GTAATTCA: 0.276
TGATTACA: 0.344
ACAACTAA: 0.317

Block 5 — cell line: HEK-293T; read-out: pseudovirus infection; technique: FDA-approved drug library screen; organism: VSV pseudotyped with SARS-CoV-2 spike; concentration: 10 µM; time: 16 h; relative to: vehicle-treated; measurement: GFP-positive cells
CC(CCc1ccccc1)NCC(O)c1ccc(O)c(C(N)=O)c1 (stereo not shown): 94.9%
NCC[C@H](O)C(=O)N[C@@H]1C[C@H](N)[C@@H](O[C@H]2O[C@H](CN)[C@@H](O)[C@H](O)[C@H]2O)[C@H](O)[C@H]1O[C@H]1O[C@H](CO)[C@@H](O)[C@H](N)[C@H]1O: 85.7%
C[C@]12C=CC(=O)C=C1CC[C@H]1[C@@H]3C[C@@H](O)[C@](O)(C(=O)CO)[C@@]3(C)C[C@H](O)[C@@]12F: 100%
CCCCC(=O)O[C@H]1CC[C@H]2[C@@H]3CCc4cc(O)ccc4[C@H]3CC[C@]12C: 87.2%

Block 6 — technique: RNA Bind-n-Seq; form: RNA; matrix: in vitro; concentration: 20 nM; setting: 6-mer, flanks averaged, single round; added: 150 mM KCl; relative to: input library; reading: higher = stronger binding; measurement: 6-mer enrichment (R)
Target: TAR DNA-binding protein 43, full length, His tag (TARDBP, Homo sapiens, UniProt Q13148, residues 1-414)
UAGCAU: 0.64
UUCCGG: 0.849
UAAUGU: 0.698
GUCGAU: 0.786
GCUGCA: 0.878

Some of these lines once more (block 3):
COC(=O)c1cc2c(C(F)(F)F)cc(-c3ccccc3)cc2n1O: 3.33%
CN(C)C(=O)CCSC(SCCC(=O)O)c1cccc(/C=C/c2ccc3ccc(Cl)cc3n2)c1 (stereo not shown): 12.6%
N[C@@H]1[C@H]2CN(c3nc4c(cc3F)c(=O)c(C(=O)O)cn4-c3ccc(F)cc3F)C[C@@H]12: 7.13%
OC[C@H]1O[C@@H](c2ccc(F)c(Cc3cc4ccccc4s3)c2)[C@H](O)[C@@H](O)[C@@H]1O: 5.35%
Nc1ccc(S(=O)(=O)Nc2ccc(Cl)nn2)cc1: 2.05%
